Assay results of several laboratories.
A part holds a random share of what one study measured. Substitutions count along the parent as printed.

Block 1
Target: CCNB2, cyclin fold, Cln2 fusion (human)
Method: yeast growth competition, sequencing
Sample: yeast
Setting: weak parent motif
Relative to: not given
Reading: higher = stronger binding
Measurement: normalised enrichment score
Starting sequence: GMNC docking peptide (human); KNAKRNLSSEFAN; partner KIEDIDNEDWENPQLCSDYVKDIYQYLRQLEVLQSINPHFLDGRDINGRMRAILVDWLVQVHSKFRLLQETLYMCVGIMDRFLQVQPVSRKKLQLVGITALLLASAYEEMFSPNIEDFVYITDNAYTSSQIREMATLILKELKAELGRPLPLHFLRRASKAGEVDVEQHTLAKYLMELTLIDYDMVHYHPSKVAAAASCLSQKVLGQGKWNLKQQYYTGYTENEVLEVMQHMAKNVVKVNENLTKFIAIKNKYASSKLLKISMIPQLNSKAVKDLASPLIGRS
F11E: 0.0342
N6R: 0.476
A12E: 0.748
E10Q: 0.575
R5K: 0.301
A3E: 0.182
S9A: 0.393
A3M: 0.444
E10M: 0.464
L7C: 0.0785
N6Y: -0.202
A12K: 0.692
S9R: 0.784
R5P: -0.403
S9P: 0.604
N2L: 0.535
S8C: 0.416
L7G: 0.365
S8K: 0.336
A12S: 0.525
K4N: 0.514
R5T: 0.336
S8G: 0.653
S8R: 0.454
R5Y: 0.741

Block 2
Target: RING finger protein unkempt homolog, zinc fingers 1-6, GST-SBP tag (UNK, Homo sapiens, UniProt Q9C0B0, residues 30-357)
Method: RNA Bind-n-Seq
Form: RNA
Sample: in vitro
Tested at: not given
Setting: RNA with constant flanks, human and mouse sites, ends assumed
Relative to: input RNA pool
Reading: higher = stronger binding
Measurement: bound/input enrichment
Residues (chain): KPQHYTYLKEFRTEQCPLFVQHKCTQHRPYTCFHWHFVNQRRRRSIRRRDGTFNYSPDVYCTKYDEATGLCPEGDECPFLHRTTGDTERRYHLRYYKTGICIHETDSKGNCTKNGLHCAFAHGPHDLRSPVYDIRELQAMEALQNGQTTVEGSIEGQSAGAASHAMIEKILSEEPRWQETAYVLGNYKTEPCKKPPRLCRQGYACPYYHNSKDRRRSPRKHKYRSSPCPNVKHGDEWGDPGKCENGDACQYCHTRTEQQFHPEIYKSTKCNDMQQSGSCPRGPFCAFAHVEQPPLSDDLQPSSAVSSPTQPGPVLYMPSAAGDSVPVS
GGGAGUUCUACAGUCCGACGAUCAAUUAUCAAGUUUUAUUCACCUCAAAUCCCACUGGGUUCUUAAAACUUGAAAAUUCAAAUUGUAGAGAAUUAUGAGACACAAUGUGAUGUUUAGUUAAAGUCAUGCUAUACCUUUCUGGGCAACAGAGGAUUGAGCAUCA: 1.13 ratio
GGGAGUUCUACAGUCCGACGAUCAUUGAGAAAUAAUACUAUCUUCUACGUUACUUGUGUAAAAGGUGUGUCUGAUUGGACUUGUUUAGAAUUCCUUUUAAAACUAACUCAUUAGAUUGAAGGUAUAUUUUCUAAUUACAGUUCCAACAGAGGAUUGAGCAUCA: 0.782 ratio
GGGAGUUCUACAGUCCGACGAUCCUCUUUGAAUCAUUCAAGAGUUUUGAAGGUCUCUUUUAUUUUCUGGGGUCCAUUGUUAACUUUAGUCAGGACCCAGAUGUGCACUUUAAAUAUAUUCAGGCGGCUUGCAAGACUGGGCAACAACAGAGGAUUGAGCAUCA: 0.68 ratio
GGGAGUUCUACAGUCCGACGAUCAGGAUAGUAUUGGUUGCUAUGGAAACCUGGGCGACUGACAACAAGUUUGCCAUAUCUGAAAAUCCAUUGAUCACCCUACGUGAGUUUAUGAAAUACAGGAGGGAUUUUAUCAAAGAGAAACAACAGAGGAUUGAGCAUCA: 0.16 ratio
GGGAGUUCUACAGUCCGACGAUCGUCAUUUUUUUUCUUUGAAUAAAUGUCACUUUUUGAGGCAAAAGAAGGAACCGUGAACAUUUUAGACACCCUUUUCUUUGGGGUAGGCUCUUGCCCCAGGCGCCGGCUCUUCUCCCAAAACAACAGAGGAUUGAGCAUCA: 0.605 ratio
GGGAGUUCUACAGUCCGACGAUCCAGAGGUGGAGUGAAGUGGAUUGUUCCAUCAGGAACUCAAUCUUCACGACACUGAGCAAUGUGUUGCAGUAAACAAGGAAGAAAUCCCUGCUCUUUGUUCUCCCUACCCUUAAUUGAACACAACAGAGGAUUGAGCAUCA: 0.138 ratio
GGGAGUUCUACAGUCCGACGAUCAUUGCUAAUGCCCCGGAUGGAGCUGGGUCAUUGCCUUGCACAGAAUUGCCCCAUGACCUUUCUUUGAAGAACAUACAACCCAAAGUUGAAGAGAAAAUCAGUUUCUCAGAUGACUUUUCUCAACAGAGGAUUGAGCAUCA: 0.149 ratio
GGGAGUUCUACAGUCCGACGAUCGUGAAGAACACCAUCUACUGUAACGUGGAGCCAUCGGAAUCCAAUAUGCGCUGGGCACCGGAGUUCAUGAUUGACACUCUGGAGAACCCUGCCGCUCACACUUUCACCUACACGGGGCUCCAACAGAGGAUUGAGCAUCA: 0.073 ratio
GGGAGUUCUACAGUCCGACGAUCUAUAGCUACGCCCUUGGUCAGGGGUGGGGUGGGGCUGGUUGAGGGUGGGGGUGGGAUGGGACUAGAGGGCAACAUUGAAGGGGUUAAACAGGUUCCUGAAUUUGUUUGCCUGGGCCCAAUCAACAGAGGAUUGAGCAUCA: 1.92 ratio
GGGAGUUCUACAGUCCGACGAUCCCAGCCUCGAUGACCUACGAUGACAUUCCGCACCUCUCAGCCAAGAUCAAGCCCAAGCAGCAGAAGGUAGAGCUUGAGAUGGCCAUCGACACCCUGAACCCCAACUAUUGCCGCAGCAAACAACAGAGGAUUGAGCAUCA: 0.194 ratio
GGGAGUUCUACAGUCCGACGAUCAAUAUAUAUCAAAUGGCGACAUUUGGAACAACAGCUGGUUUCUCUGGAAUAUUCUCAAACUUCCUGUUCAGACGCUGCUUCAAGGUUAAACAUGAUGCUUUGAAGACAUAUGCAUCAUUGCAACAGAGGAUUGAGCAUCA: 0.153 ratio

Block 3
Target: Max-binding protein MNT, bHLH-zipper, MAX partner unstated (MNT, Homo sapiens, UniProt Q99583, residues 220-300)
Method: protein-binding microarray
Form: double-stranded DNA, one strand shown
Sample: in vitro
Tested at: not given
Setting: k-mer, scored over probes, only values ≥0.25
Reading: higher = stronger binding
Measurement: E-score
Construct (chain): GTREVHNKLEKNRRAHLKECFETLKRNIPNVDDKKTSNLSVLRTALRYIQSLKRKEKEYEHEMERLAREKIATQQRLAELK
CCACGCTC: 0.372
AGTCCATG: 0.274
GGTGGGGA: 0.35
GTCATGCA: 0.261
AACACGAG: 0.426
ATGTGCTC: 0.391
CATAGCAC: 0.291
ACATGGCG: 0.356
CACGCGTG: 0.466
CCACGAGA: 0.352
CCCCGCCC: 0.384
GTGACTCA: 0.282
ACGTGCTC: 0.457
ATGCGTAC: 0.332
GTGTCCCA: 0.292
AAAACGTG: 0.443
ACGTGAAC: 0.339
ACGCCCAC: 0.303
AGCACGCC: 0.38
CATGGGCG: 0.275
CATGTCCG: 0.31
TCACCCCA: 0.318
GCCACACC: 0.277
AAGCGTGC: 0.395

Block 4
Target: Ras GTPase-activating protein-binding protein 1, full length (G3BP1, Homo sapiens, UniProt Q13283)
UniProt Q13283, sequence (whole entry, looked up): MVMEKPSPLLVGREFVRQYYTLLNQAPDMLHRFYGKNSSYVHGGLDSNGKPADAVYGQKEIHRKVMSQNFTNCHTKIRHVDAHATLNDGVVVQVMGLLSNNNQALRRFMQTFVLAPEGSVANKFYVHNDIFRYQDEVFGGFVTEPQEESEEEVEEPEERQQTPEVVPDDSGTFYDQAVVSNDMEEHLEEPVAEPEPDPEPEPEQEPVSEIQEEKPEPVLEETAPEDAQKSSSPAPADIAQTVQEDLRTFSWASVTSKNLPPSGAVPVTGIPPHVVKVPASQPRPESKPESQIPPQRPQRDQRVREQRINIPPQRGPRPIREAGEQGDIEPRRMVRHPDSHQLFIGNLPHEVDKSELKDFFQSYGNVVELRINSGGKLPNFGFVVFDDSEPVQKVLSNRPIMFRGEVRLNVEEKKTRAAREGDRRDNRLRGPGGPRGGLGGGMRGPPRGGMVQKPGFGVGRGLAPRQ
Method: RNA Bind-n-Seq
Form: RNA
Sample: in vitro
Tested at: 200 nM
Setting: whole 134-nt RNA, ends assumed
Added: 150 mM LiCl
Relative to: input library
Reading: higher = stronger binding
Measurement: log2 enrichment
All molecules: 7-deaza-guanosine replaces G
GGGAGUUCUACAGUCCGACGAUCACCAUGCAGGUGGGCAUCUUUGGGAAGUGGGGCACGGGGGGGAUAGGGAGGGGGGUAACACUUUGGGAACAGGUGGUCCCAGGUCGUUUCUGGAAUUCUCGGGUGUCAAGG: 0.0283
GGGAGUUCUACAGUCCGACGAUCCAAGUCCUGUGCUACACAUCGUAUGUACCGAAUCGGAAAGGAAAAAAAGGAAAGGAAAGUAUUAUGUUACGCCGUUCGGAUCUGCACUUCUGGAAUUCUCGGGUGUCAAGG: -0.602
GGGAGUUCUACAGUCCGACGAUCUGGGAGGUGGAUUUUGUUUAUUUUUUUAGGUCAUUUCCAGGGGUGGGAAUUUUUUUUUAAUAUGUGUCAUGAAUAAAGUUGUUUUUGAAAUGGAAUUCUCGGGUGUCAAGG: 0.0337
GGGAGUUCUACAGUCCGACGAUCAGUCCUGUGCUACACAUCGUAUGUACCGAAUCGGUUUUUUUGGAAAAAGGAAAAAGGAAAGUAUUAUGUUACGCCGUUCGGAUCUGCACUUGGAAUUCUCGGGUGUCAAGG: -2.51
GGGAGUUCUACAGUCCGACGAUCUAACUUUAGAGGAGGAUCUGAUGGAUAUGGCAGUGGACGUGGAUGUGGGGAUGGCUAUAAUGGGUAUGGAGGAGGACCUGGAGGUGGCAAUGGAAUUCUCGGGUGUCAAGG: 0.0632
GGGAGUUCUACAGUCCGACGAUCGUCCUGUGCUACACAUCGUAUGUACCGAAUCGGAAAAAAGGAAAAAAGGAAAAAAGGGGAAAGUAUUAUGUUACGCCGUUCGGAUCUGCAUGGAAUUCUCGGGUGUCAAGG: -0.55
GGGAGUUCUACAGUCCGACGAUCCCUGUGCUACACAUCGUAUGUACCGAAUCGGGGUUUGGGGAAAAAGGGGAAAAAAAGGGGAAAGUAUUAUGUUACGCCGUUCGGAUCUGCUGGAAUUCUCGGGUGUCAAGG: 0.289
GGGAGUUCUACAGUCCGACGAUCCUGUGCUACACAUCGUAUGUACCGAAUCGGGGAAAAAAAGGGGUUUUUGGGGAAAAAGGGGAAAGUAUUAUGUUACGCCGUUCGGAUCUGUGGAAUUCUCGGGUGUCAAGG: -0.229
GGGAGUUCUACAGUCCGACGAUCGUCCUGUGCUACACAUCGUAUGUACCGAAUCAAAUUUUUAAACCCAAACCCCCCCAAAAAAGUAUUAUGUUACGCCGUUCGGAUCUGCACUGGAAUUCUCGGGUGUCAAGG: 0.726
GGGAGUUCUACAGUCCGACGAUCGCAGGAAGUAAAAACAAAUGGAAAUGCUUCGGAUAGUGGCAGGGGUAAAGGUUGCUAAGGAAAGGGUGGGAUGGGAGUGGGUAAAGAGUUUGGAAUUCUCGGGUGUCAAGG: 0.629
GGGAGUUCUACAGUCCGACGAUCUGUGCUACACAUCGUAUGUACCGAAUCGGGGUUUUUUUGGGGUUUUUUUGGGGUUUUUUUGGGAAAGUAUUAUGUUACGCCGUUCGGAUCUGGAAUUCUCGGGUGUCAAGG: 2.02

Block 5
Target: Histone acetyltransferase KAT6A, winged helix 1, GST fusion (KAT6A, Homo sapiens, UniProt Q92794, residues 1-85)
Method: protein binding microarray
Form: double-stranded DNA, one strand shown
Sample: in vitro
Tested at: not given
Setting: 8-mer, flanks averaged, mean of 2 arrays, mostly near background
Relative to: not given
Reading: higher = stronger binding
Measurement: E-score
Construct (chain): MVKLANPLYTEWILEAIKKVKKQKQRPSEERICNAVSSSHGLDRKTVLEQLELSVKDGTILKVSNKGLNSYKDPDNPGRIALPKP
AAGTCCCG: 0.184
AAAGTCCT: -0.111
GACGGCAC: 0.339
CAAGCCGC: 0.395
CACCGCCA: -0.0129
CATCCCTA: -0.144
CGCCGACC: 0.42
CTGCAAAG: -0.175
AAACCTCT: -0.0367
TATAACGA: -0.0534
AGGTTGTC: -0.247
ATACCTTG: -0.122
CCAAGTGC: -0.0332
GCACCTGA: -0.241
CGCCGGGA: 0.44
GCGACAGA: 0.16
AAGAACTG: -0.164

Block 6
Target: DDIT3, bZIP domain (human)
Method: DHFR protein complementation
Sample: yeast
Setting: single substitutions, most at no-binding floor
Relative to: wild-type JUN-FOS pair
Reading: higher = stronger binding
Measurement: binding fitness
Starting sequence: JUN, bZIP domain (human); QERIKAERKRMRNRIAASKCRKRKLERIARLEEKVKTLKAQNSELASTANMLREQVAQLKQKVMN; partner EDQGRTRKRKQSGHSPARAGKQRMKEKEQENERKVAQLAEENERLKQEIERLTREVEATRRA
V56E: -0.671 natural log
S47R: 0.113 natural log
L45N: -1.09 natural log
K36S: 0.00746 natural log
L38E: -1.06 natural log
E33R: -0.0531 natural log
Q41F: -1.42 natural log
A40T: 0.0681 natural log
S47V: 0.123 natural log
K34D: -0.112 natural log
T37F: 0.116 natural log
Q55I: -0.0569 natural log
K34P: -1.07 natural log
A46P: -1.18 natural log
L31K: -1.22 natural log
T37V: 0.0865 natural log
E33L: -0.0536 natural log
M51G: -0.0357 natural log
E44G: -0.351 natural log
S47T: 0.0507 natural log
V56P: -1.16 natural log
L31M: -0.0979 natural log
K39S: 0.0929 natural log
K39T: 0.172 natural log
R30I: 0.00196 natural log

Repeated from above (block 1):
F11E: 0.0342
R5T: 0.336
N2L: 0.535
S8K: 0.336
S9A: 0.393
L7C: 0.0785
N6Y: -0.202
R5K: 0.301
S8C: 0.416
S8G: 0.653
A3E: 0.182
S9R: 0.784
E10Q: 0.575
